# Measurements of several laboratories.
# Each line is one published result; not all experiments were run side by side. ± marks the error that the study gave.
SMILES,cell line,assay,system,conditions,IC50
CCOC(=O)/C=C1\S/C(=N\N=C\c2cccc3cc4ccccc4nc23)N(c2ccc(OC)cc2)C1=O,PATU,"cell proliferation, MTT",,48 h,> 50000 nM
C#CCNC(=O)[C@@]1(C)C(=O)CC[C@]2(C)[C@H]3C(=O)C=C4[C@@H]5[C@@H](C)[C@H](C)CC[C@]5(C)CC[C@@]4(C)[C@]3(C)CC[C@@H]12,HDF,"cell growth or viability, MTT",,24 h,> 200000 nM
CC[C@H](C)C(=O)O[C@H]1C[C@@H](C)C=C2C=C[C@H](C)[C@H](CC[C@@H]3CC=CC(=O)O3)[C@H]21,T84,"short-circuit current, inhibitor",,together with: forskolin 20 µM,~6320 nM
C=CC(=O)N1CCCC(n2c(=O)c3ncccc3n(Cc3ccc(Oc4ccccc4)cc3)c2=O)C1 (stereo not drawn),CLBL-1,"cell growth or viability, MTT",,72 h,300 nM
O=C(NCc1cc(F)cc(F)c1)[C@@]1(O)CCN(c2ccc3[nH]ccc3c2)C1=O,HCC827,cell growth or viability,,,> 30000 nM
C=CC(=O)N1CC2C(=O)N(CCN(C)C)c3c(c4cc(Cl)c(-c5c(O)cccc5F)nc4n(-c4c(C)ccnc4C(C)C)c3=O)N2CC1C (stereo not drawn),SK-LU-1,cell growth or viability,,,> 10000 nM
O=C(NC1(O)C(=O)c2ccccc2C1=O)c1cccc2c1-c1ccccc1C2=O,HEK293-A GFP-LC3B,LC3B puncta formation,,"22 h, together with: chloroquine, torin1",> 20000 nM
COc1cccc(N2C(=O)CS/C2=N\N=C\c2cccc3cc4ccccc4nc23)c1,PATU,"cell proliferation, MTT",,48 h,> 50000 nM
CCn1nc(Cl)c2c1-c1cnc(N)c(c1)O[C@H](C)c1cc(F)ccc1-c1nn(C)cc1C2,Ba/F3 EML4-ALK variant 1,cell viability,,,1.7 nM
CC(C)c1ccc(N(C)c2ccc3c(c2)OCC[C@H]3CNc2cnccc2C(=O)O)cc1,UMUC3,"cell growth or viability, ATP luminescence",,7 days,39.5 nM
N#Cc1c(N)nc2c(c1-c1ccc(F)cc1)Cc1cc(O)ccc1-2,HH,"cell growth or viability, ATP luminescence",,,7900 nM
C=CCOCO[C@H](C(=O)NC[C@@H]1C[C@@H](OC)C(C)(C)[C@@H](C[C@@H](COC)OC)O1)[C@@]1(OC)CC(=C)[C@@H](C)[C@@H](C)O1,Renca,"cell viability, sulforhodamine B",,"72 h, 37 °C, together with: H2O2 100 µM",2710 ± 313 nM
COC(=O)c1ccc(NC(=O)Nc2ccc(C(F)(F)F)cc2)cc1,LAD2,degranulation,,,4770 nM
O=C1c2ccccc2-c2nc3nonc3nc21,HEK293-A GFP-LC3B,LC3B puncta formation,,"22 h, together with: chloroquine, torin1",> 20000 nM
CCOc1cncc(-c2ccc(NC(=O)C3(c4ccnc(NS(=O)(=O)C5CC5)n4)CCOCC3)nc2)n1,HuP-T3,"cell growth or viability, ATP luminescence",,72 h,103 nM
O=C1CS/C(=N\N=C\c2cccc3cc4ccccc4nc23)N1c1ccc(F)cc1,PATU,"cell proliferation, MTT",,48 h,> 50000 nM
N#Cc1c(N)nc2c(c1-c1ccc[nH]1)Cc1cc(O)ccc1-2,HH,"cell growth or viability, ATP luminescence",,,7530 nM
CCN(C(=O)c1cc(F)ccc1Oc1nncnc1N1CCC2(C1)CN(C(CCCN(C)CCOC)C(C)C)C2)C(C)C (stereo not drawn),"MV4-11 (KMT2A-AF4, FLT3-ITD)","mRNA level, QuantiGene multiplex, measured: PBX3",,concentration not given,762 ± 65 nM
COC(=O)N1c2ccc3c(nc(Cc4ccccc4)n3[C@@H]3CCC[C@@H](C(=O)O)C3)c2CC[C@@H]1C,ZR-75-30,"cell growth or viability, ATP luminescence",,10 days,100 nM
CCCCn1cnc2ccc(-c3ccc(NC(=O)CC)nc3)cc2c1=O,HCC827,"cell growth or viability, CCK-8",,72 h,1210 nM
Cn1ncc(-c2ccc3c(=O)[nH]nc(CN)c3c2)c1-c1c(F)c(Cl)cc(OC2CC2)c1C#N,SW780,"cell viability, inhibitor, CellTiter-Glo",,"120 h, baseline-subtracted",20 nM
Cc1ccc([N+](=O)[O-])cc1S(=O)(=O)N(C)/N=C/c1cnc2ccc(Br)cn12,UO-31,MTS,,NCI60 panel,115 nM
CNS(=O)(=O)Nc1nccc(Cc2c(C)c3ccc(Oc4ncccc4F)cc3oc2=O)c1F,OE21,cell viability,,7 days,47.2 nM
CCOC(=O)/C=C1\S/C(=N\N=C\c2cccc3cc4ccccc4nc23)N(c2ccccc2)C1=O,PATU,"cell proliferation, MTT",,48 h,> 50000 nM
COc1ccc2c(c1)OC1=C(C(=O)CC(C)(C)C1)C2C1=C(O)CC(C)(C)CC1=O (stereo not drawn),3T3-L1 pre-adipocytes,"cell viability, MTT",,72 h,100 to 1000 µg/mL
Cn1ccnc1S/C(=C\C=C(C#N)C#N)c1ccc(Cl)cc1,mouse embryonic fibroblasts,"cell viability, CellTiter-Glo",,48 h,1800 nM
CN1CCC(N[C@H]2CCc3[nH]c4c(C(N)=O)ccc(-c5ccccc5Cl)c4c3C2)CC1,MCF7 (paclitaxel-resistant),"cell growth, inhibitor, CellTiter-Glo",,96 h,1410 nM
CC1(C)CC(=O)C2=C(C1)Oc1ccc3ccccc3c1C2n1nnc2ccccc21 (stereo not drawn),3T3-L1 pre-adipocytes,"cell viability, MTT",,72 h,79.2 ± 1.43 µg/mL
CC(=O)c1cnc(N)nc1N1CC[C@H]1c1nn2ccc(Cl)c2c(=O)n1-c1ccccc1,basophils,"CD63 upregulation, inhibitor",human whole blood,"PI3K delta response, together with: IgE",37 nM
CC1(C)CC(=O)C2=C(C1)Oc1ccc(Cl)cc1C2c1c(C(=O)O)[nH]c2ccccc12 (stereo not drawn),3T3-L1 pre-adipocytes,"cell viability, MTT",,72 h,32.6 ± 0.77 µg/mL
O=C1C(=O)N(CN2CCc3c([nH]c4ccccc34)C2C(F)(F)F)c2ccc(F)cc21 (stereo not drawn),HEK293-A GFP-LC3B,LC3B puncta formation,,"22 h, together with: chloroquine, torin1",> 20000 nM
CC1(C)CC(=O)C(C2C3=C(CC(C)(C)CC3=O)Oc3ccccc32)=C(O)C1 (stereo not drawn),3T3-L1 pre-adipocytes,"cell viability, MTT",,72 h,42.8 ± 2.45 µg/mL
COc1ccc(C([O-])=CC(=O)c2ccc(C(C)(C)C)cc2)cc1.[Cl-].[Ru+2].c1ccc(-c2cccc(-c3ccccn3)n2)nc1,DU-145,cytotoxicity,,dark,650 nM

# Repeated from above:
SMILES,cell line,assay,system,conditions,IC50
CN1CCC(N[C@H]2CCc3[nH]c4c(C(N)=O)ccc(-c5ccccc5Cl)c4c3C2)CC1,MCF7 (paclitaxel-resistant),"cell growth, inhibitor, CellTiter-Glo",,96 h,1410 nM
CC1(C)CC(=O)C2=C(C1)Oc1ccc3ccccc3c1C2n1nnc2ccccc21 (stereo not drawn),3T3-L1 pre-adipocytes,"cell viability, MTT",,72 h,79.2 ± 1.43 µg/mL
CC(=O)c1cnc(N)nc1N1CC[C@H]1c1nn2ccc(Cl)c2c(=O)n1-c1ccccc1,basophils,"CD63 upregulation, inhibitor",human whole blood,"PI3K delta response, together with: IgE",37 nM
